Assay results gathered from unrelated publications.
± marks the error that the study gave.

SMILES | test | test system | setting | how to read | endpoint | value
NCCCC(=O)OCC(=O)c1cc(F)c(O)c(F)c1.O=C(O)C(F)(F)F | photolysis, refers to: disappearance of compound | aqueous HEPES buffer with LiClO4 | pH 8.2 |  | quantum yield | 0.02
CN1CCC[C@]1(C)/C=C/S(=O)(=O)NC(=O)Nc1c2c(cc3c1CCC3)CCC2 |  | human, plasma | oral, 12.5 mg twice daily, day 14, tau 12 h, multiple ascending dose |  | AUC(0-tau) | 12000 ng·h/mL
Cc1[nH]c(/C=C2\C(=O)Nc3ccc(F)cc32)c(C)c1NC(=O)CCN1CCN(C)CC1 |  | dog plasma | 1.00 ng/mL nominal, three freeze-thaw cycles at -20 °C |  | accuracy deviation | -4.57%
NCCCC(=O)OCC(=O)c1ccc(O)cc1F.O=C(O)C(F)(F)F | photolysis, refers to: disappearance of compound | unbuffered water |  |  | quantum yield | 0.28
CC[C@H](C)[C@H](NC(=O)[C@H](CC(C)C)NC(=O)[C@H](Cc1c[nH]c2ccccc12)NC(=O)[C@H](C)NC(=O)[C@@H](NC(=O)[C@H](Cc1ccccc1)NC(=O)[C@H](CC(=O)O)NC(=O)[C@H](CCCNC(=N)N)NC(=O)[C@H](C)NC(=O)[C@H](C)NC(=O)[C@H](CC(C)C)NC(=O)[C@H](C)NC(=O)[C@H](CC(=O)O)NC(=O)[C@H](CC(C)C)NC(=O)[C@@H](NC(=O)[C@@H](NC(=O)[C@H](C)NC(=O)[C@H](CC(C)C)NC(=O)[C@H](CCC(=O)O)NC(=O)[C@H](CO)NC(=O)[C@H](CO)NC(=O)[C@H](Cc1ccccc1)NC(=O)[C@@H](NC(=O)CNC(=O)[C@H](CCC(=O)O)NC(=O)CNC(=O)[C@@H](N)Cc1cnc[nH]1)[C@@H](C)O)[C@@H](C)O)[C@@H](C)CC)[C@@H](C)CC)C(=O)N[C@@H](C)C(=O)N[C@H](C(=O)N[C@@H](CCCCN)C(=O)N[C@H](C(=O)N[C@H](C(=O)N[C@@H](CC(=O)O)C(=O)N[C@@H](CCCCN)C(=O)N[C@@H](CCCCN)C(=O)N[C@@H](CCCCN)C(=O)N[C@@H](CCCCN)C(=O)N[C@@H](CCCCN)C(=O)N[C@@H](CCCCN)C(N)=O)[C@@H](C)O)[C@@H](C)CC)[C@@H](C)O |  | healthy human subjects, plasma | intravenous infusion, 1 mg, 15 min infusion |  | terminal half-life | 10.4 h
CC(=O)N[C@@H](CCCCN)C(=O)N[C@@H](CCCCN)C(=O)N[C@@H](CCCCN)C(=O)N[C@@H](CCCCN)C(=O)N[C@@H](CCCCN)C(=O)N[C@@H](CCCCN)C(=O)N[C@@H](CCCCN)C(=O)N[C@@H](CCCCN)C(=O)N[C@@H](CCCCN)C(=O)N[C@@H](CCCCN)C(=O)N[C@@H](CCC(N)=O)C(=O)N[C@@H](Cc1c[nH]c2ccccc12)C(=O)N[C@@H](CCC(N)=O)C(=O)N[C@@H](Cc1c[nH]c2ccccc12)C(=O)N[C@@H](CCC(N)=O)C(=O)N[C@@H](Cc1c[nH]c2ccccc12)C(=O)N[C@@H](CCC(N)=O)C(=O)N[C@@H](Cc1c[nH]c2ccccc12)C(=O)N[C@@H](CCC(N)=O)C(=O)N[C@@H](Cc1c[nH]c2ccccc12)C(=O)N[C@@H](CCC(N)=O)C(=O)N[C@@H](Cc1c[nH]c2ccccc12)C(N)=O | sedimentation velocity AUC | Tris buffer 20 mM | 20 µM, 24 h, pH 7.4, 4 °C |  | number of subunits per assembly | 12 subunits
CC(C)[C@H](NC(=O)CNC(=O)[C@H](CCC(N)=O)NC(=O)[C@H](C)N)C(=O)O | LC-MS/MS | human, male, plasma | intravenous, 10 mg/kg three times daily, day 2, first dose, 10 min infusion, geometric mean |  | half-life | 3.6 min
COC(=O)C(c1ccccc1Cl)N1CCC(SCC(=O)c2cccc(OC)c2)C(=CC(=O)O)C1 (mixture of isomers) | HPLC-MS/MS | feline citrate plasma | 100 ng/mL, 48 h, -20 °C, storage stability |  | deviation from nominal | -4%
Cc1ccc(OCC(=O)O)cc1 |  | Sprague-Dawley rat, male, plasma | oral gavage, 100 mg/kg of parent drug |  | AUC(0-last) | 47500 ± 19000 ng·h/mL
CN1C(=O)[C@@H](Cc2ccc(O)c(I)c2)NC(=O)CNC(=O)[C@H](Cc2ccc3ccccc3c2)NC(=O)[C@H](CCCNC(=N)N)NC(=O)[C@H]1CCCNC(=O)c1ccc(CNC(=O)CN2CCN(CC(=O)O)CCN(CC(=O)O)CCN(CC(=O)O)CC2)cc1 [lutetium-177 labelled] | 1 | human, extrapolated from mouse, kidneys |  |  | total absorbed dose | 0.21 mGy/MBq
COc1ccc(/C=C/c2ccc(-c3ccc(C)cn3)nc2)cc1 | TCSPC | CHCl3 |  |  | fluorescence lifetime | 0.7 ns
CCc1cc(Nc2nc(-c3ccc(-n4cnc(C)c4)c(F)c3)cs2)c(C)cc1C |  | human, both sexes, plasma | oral, 400 mg, day 1, multiple dose, geometric mean |  | terminal elimination rate constant | 2.97e-05 s⁻¹
CCC1(CC)C[C@@H](NC(=O)Nc2cccc3c(C)nccc23)c2cc(F)ccc2O1 |  | rat, abdomen | oral gavage, 41 mg/kg, 60 min | baseline: vehicle | decrease in body temperature | 1.6 °C
CC(C)(O)c1ncc([S@](N)(=O)=NC(=O)Nc2c3c(cc4c2CCC4)CCC3)s1 |  | healthy human | oral, 200 mg once daily, day 14, spray-dried dispersion, geometric mean |  | AUC(0-tau) | 181000 ng·h/mL
Cn1c(=O)oc2ccc(-c3ccc(CC(C#N)NC(=O)C4CNCCCO4)c(F)c3)cc21 (centres unmarked) | refers to: total protein decreased | human | 40 mg single dose, fasted |  | subjects with TEAE | 8.3%
N=C(N)NCCC[C@@H]1NC(=O)[C@H](Cc2c[nH]c3ccccc23)NC(=O)[C@@H](CC2CCCCC2)NC(=O)[C@@H]2CCCN2C(=O)[C@@H](NC(=O)CCc2ccccc2)CCCNC1=O |  | C57BL/6J mice, brain | intravenous, 1 mg/kg, two-compartment model |  | distribution rate constant k12 | 19.8 h⁻¹

SMILES | test | test system | setting | how to read | endpoint | value
Cn1cc2cc1C(=O)NCCCC(=O)Nc1cn(C)c(n1)C(=O)Nc1cn(C)c(n1)C(=O)Nc1cc(n(C)c1)C(=O)Nc1cc(n(C)c1)C(=O)NC[C@H](N)CC(=O)Nc1cc(n(C)c1)C(=O)Nc1cc(n(C)c1)C(=O)Nc1cc(n(C)c1)C(=O)N2 |  | C57BL/6 mice | intraperitoneal or subcutaneous, 120 nmol/animal |  | circulation time | ≥ 48 h
O=C([O-])CN1CCN(CC(=O)[O-])CCN(CC(=O)NCC2CCC(C(=O)NC(Cc3ccc4ccccc4c3)C(=O)NCCCCC(NC(=O)NC(CCC(=O)O)C(=O)O)C(=O)O)CC2)CCN(CC(=O)[O-])CC1.[44Sc+3] (centres unmarked) | transmetallation stability |  | 24 h, 37 °C, together with: Mg2+ 10 mM |  | intact complex | 97.2 ± 0.8%
Cc1cccc(C)c1OCC(N)c1ccccc1 (centres unmarked) |  | mouse liver S9 | 88 µM, 30 min, 37 °C |  | metabolic rate | 0.21 ± 0.01 nmol/min/mg of protein
C#CCOc1ccc(/C=C2\SC(=O)N(CC(=O)NCc3ccccc3)C2=O)cc1 | inverse Kirkwood-Buff integrals | binary solvent mixture | concentration not given, 298.15 K, mole fraction x1 0.60 |  | correlation volume | 4490 cm³/mol
NC12CNCCNCC(NCc3ccc(CNC(=O)CCCC(=O)NCc4ccc(-c5nncnn5)cc4)cc3)(CNCCNC1)CNCCNC2.[64Cu+2] | OLINDA dosimetry | total body | pretargeting, 120-h interval |  | mean absorbed dose | 0.0316 rad/mCi
O=C(O)[C@@H]1C[C@@H](O)CN1C(=O)[C@@H]1CCCN1 | potentiometric titration | water | 25 °C, 0.15 mol/dm3 NaCl |  | pKa2 | 5.9
CN(O)C(=O)CCC(=O)NCCCN(CCCCN(CCCNC(=O)CCC(=O)N(C)O)C(=O)CCC(=O)N(C)O)C(=O)CCC(=O)N(C)O.[89Zr] |  | BALB/c mice, kidney | dose not given, 24 h vs 1 h |  | kidney activity decrease factor | 7.5
COc1cc(C)c(Cc2ccc(O)cc2)cc1[C@@H]1S[C@H](CO)[C@@H](O)[C@H](O)[C@H]1O |  | Japanese T2DM patients, urine | 2.5 mg luseogliflozin, day 7, once daily | baseline: dose | urinary excretion 0-24 h | 11.2 ± 2.13%
CCNC(=O)OCc1c(COC(=O)NCC)c(-c2ccc(OC)cc2)n2c1Cc1ccccc1-2 |  | BALB/c nude mice, blood | dose not given, day 10 |  | mean cell volume | 52.7 ± 0.5 fL
[2H]C([2H])([2H])NC(=O)c1ccc(N2C(=S)N(c3ccc(C#N)c(C(F)(F)F)c3)C(=O)C2(C)C)cc1F |  | male human, plasma | oral, 40 mg, single dose, fasted |  | MRT | 186 h
CC(C)c1cnc(-c2cc(Cl)ccc2F)cc1Nc1ccncc1C(=O)NC(CO)CO | refers to: hypotension | human patients | oral, dose not given, grade 1 |  | patients with related SAE | 0%
O=C(NC1CCCCC1)C(c1ccccn1)N(C(=O)CCl)c1cccc(F)c1 (racemic) | HPLC-MS | DPBS | 3 h, 37 °C |  | conversion to pyridinium salt | > 50%
CC/C=C\C/C=C\C/C=C\C/C=C\C/C=C\CCCCOC(CC)C(=O)O (centres unmarked) | radioactivity, 14C-labelled | Wistar rat, male, kidney medulla | oral, 100 mg/kg, 1 h |  | tissue concentration | 47.3 µg equivalents/g tissue
CC(C)[C@H](NC(=O)[C@@H]1CCCN1C(=O)[C@H](CCCNC(=N)N)NC(=O)[C@H](CS)NC(=O)[C@H](Cc1c[nH]c2ccccc12)NC(=O)[C@H](CCCNC(=N)N)NC(=O)[C@@H](Cc1ccccc1)NC(=O)[C@H](Cc1c[nH]cn1)NC(=O)[C@H](CCC(=O)O)NC(=O)[C@H](CS)NC(=O)[C@H](CS)NC(=O)[C@@H]1CC(=O)N[C@@H](CCCNC(=N)N)C(=O)NCC(=O)N[C@@H](CC(=O)O)C(=O)N[C@H](Cc2ccc(O)cc2)C(=O)N1)C(N)=O [technetium-99m labelled] |  | C57 mouse, female, B16/F1 melanoma | intravenous, 0.037 MBq, 0.5 h | baseline: tumour over kidneys | tumour to tissue ratio | 0.32
CC[C@@H](C)N([11CH3])C(=O)c1nc(-c2ccc(Cl)cc2)c2ccccc2n1 | ultrafiltration | rhesus monkey, plasma | TSPO preblock scan |  | plasma free fraction | 0.055 ± 0.005
CCCC(CCC)NC(=O)c1ccc(O)c(O)c1 |  | male Sprague-Dawley rats, plasma | oral, 50 mg/kg of parent drug | baseline: 50 over 20 mg/kg dose | Cmax ratio | 2.63
